Experimental data pooled from the literature.
Each line is one published result; not all experiments were run side by side.

| Compound | sample | concentration | added | intrinsic clearance |
| --- | --- | --- | --- | --- |
| O=S(=O)(NCc1csc(-c2ccccc2)n1)c1ccc2ccccc2c1 | pooled human liver microsomes | – | – | 17 mL/min/g |
| CCCNC(=O)NC1CC=C(c2cc3c(Nc4cc5ncsc5cc4F)ncnc3s2)CC1 (racemic) | human liver microsomes | 1 µM | – | < 12 mL/min/g protein |
| Cc1nn(-c2ccccc2)nc1CNS(=O)(=O)c1cccs1 | pooled human liver microsomes | – | – | 9.1 mL/min/g |
| CCC(=O)N1CCC=C(c2cc3c(Nc4cc5ncsc5cc4F)ncnc3s2)C1 | human liver microsomes | 1 µM | – | < 12 mL/min/g protein |
| CC(C)(C)NCC(SS(=O)(=O)O)c1ccccc1 (stereo not shown) | female Swiss Webster mouse hepatocytes | – | – | 32 µL/min/10⁶ cells |
| CC(=O)N1CCC=C(c2cc3c(Nc4cc5ncsc5cc4F)ncnc3s2)C1 | human liver microsomes | 1 µM | – | < 12 mL/min/g protein |
| CCc1nc(N)nc(N)c1C#C[C@H](C)c1cc(-c2ccncc2)ccc1OC | mouse liver microsomes | 5 µg/mL | – | ~10 µL/min/mg |
| CC(=O)Nc1cc(Nc2cc(NC3CC3)n3ncc(C#N)c3n2)ccc1N1CCOCC1 | male CD-1 mouse hepatocytes | 1 µM | 1-aminobenzotriazole 1 mM | < 32 mL/min/kg |
| NS(=O)(=O)c1ccc(NC(=O)NN[C@@H]2O[C@H](CO)[C@@H](O)[C@H](O)[C@@H]2O)cc1 | mouse liver microsomes | 1 µM | – | 4.43 mL/min/kg |
| CCc1nc(N)nc(N)c1C#CC(C)c1cc(-c2ccnc(OC)c2)ccc1OC (racemic) | mouse liver microsomes | 5 µg/mL | – | 69 µL/min/mg |
| CC1Cc2ccccc2N1C(=O)CN1CCN(Cc2ccccc2)CC1 (stereo not shown) | mouse liver microsomes | 0.5 µM | – | 13.8 mL/min/g |
| Cc1ccc(NCC(=O)Nc2ccc(F)c(Cl)c2)cc1S(=O)(=O)N1CCOCC1 | mouse liver microsomes | – | – | 50 mL/min/g |
| O=C(NC1CC=C(c2cc3c(Nc4cc5ncsc5cc4F)ncnc3s2)CC1)NC1CCCC1 (racemic) | human liver microsomes | 1 µM | – | < 12 mL/min/g protein |

Repeated from above:
| Compound | sample | concentration | added | intrinsic clearance |
| --- | --- | --- | --- | --- |
| CC(=O)N1CCC=C(c2cc3c(Nc4cc5ncsc5cc4F)ncnc3s2)C1 | human liver microsomes | 1 µM | – | < 12 mL/min/g protein |
| CCc1nc(N)nc(N)c1C#C[C@H](C)c1cc(-c2ccncc2)ccc1OC | mouse liver microsomes | 5 µg/mL | – | ~10 µL/min/mg |
